Results gathered from unrelated publications.
Parts stem from different laboratories: compare values within a part only.

Block 1 — technique: competition protein-binding microarray; form: double-stranded DNA, one strand shown; sample: in vitro; concentration: 2 µM; together with: Cbf1 competitor, 0.05 µM; reading: higher = stronger binding; endpoint: fluorescence intensity; all sequences stand within: … GTCTTGATTCGCTTGACGCTGCTG
Target: Phosphate system positive regulatory protein PHO4, full length, GST-tagged (PHO4, Saccharomyces cerevisiae, UniProt P07270, residues 1-312)
Notes: whole 60-bp probe, lowest competitor level
Target sequence (chain): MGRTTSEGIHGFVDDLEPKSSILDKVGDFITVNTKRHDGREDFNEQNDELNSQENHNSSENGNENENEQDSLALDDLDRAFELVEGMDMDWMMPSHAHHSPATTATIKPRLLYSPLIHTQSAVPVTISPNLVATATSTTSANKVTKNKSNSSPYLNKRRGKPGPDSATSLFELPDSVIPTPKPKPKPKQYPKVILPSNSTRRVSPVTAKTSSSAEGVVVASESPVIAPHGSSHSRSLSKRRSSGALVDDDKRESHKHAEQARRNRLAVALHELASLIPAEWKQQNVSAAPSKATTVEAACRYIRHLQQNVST
TACTGACAAGATCGGCACGTTCGCCTAACCTGCGGT: 13700 a.u.
TAACAACAGGACCATCACGTGAAACTTCGACGGCTT: 10700 a.u.
CTAACGAAGGTTTGTCGCGTGGGTGACAAGCCAAGT: 8480 a.u.
GTCTTGTCTCATTAGCACGTGTTTTTCCCCACTTCA: 16200 a.u.
CTTCTGTAAATTTGTCACATAACTTGACGCGCCCCG: 3500 a.u.
GGAGATGATTTAACACCCGTGGAACTGAAAAAAGCC: 7240 a.u.
CCCAAAGGGATGGGATACATGACAACAACAAGCAAG: 4330 a.u.
AATATCCTCAACCTACACGTCTTCACCATCGGTACC: 6110 a.u.
TCTTTTCAGAGGCCCCATGTGGGCCCTTTCTTCCAA: 10600 a.u.
CATACCCAACCTTTTCACGTGAATTAAGATATTTGT: 11800 a.u.
ATATCAAATTCATTGAAGGAGGTCCCAACCGCGAGA: 3210 a.u.
AATTGGCTTGAAGGAAACGTGAGAACCATTAACACA: 9250 a.u.
TGAGTTGTCTTCCATGTCGTGCTTTGTAATTCCTCA: 6620 a.u.
CCCAGCCCTGGGAGCCACGTGATCCCGGTCCTGGTT: 15400 a.u.
GTCTTGTCTCATTGGGAAGTGGGTGTCCCCACTTCA: 4350 a.u.
CCGTTGACTTAGCTTCCTGTGATGCTGGTGTTGTTG: 4400 a.u.
CTTCTGTAAATTTGAGAAGTGGGTGGACGCGCCCCG: 3650 a.u.
AAGTTCCTACCACAACGCGTGTGAATGATCTTGTAC: 9540 a.u.
GAGCGAGACTGCCAACACGTGCACACTCCGTCCAGA: 18900 a.u.
CTTTCCCGATCTTTTCACGTGTTGTTAGCACATTTG: 14500 a.u.
TGCTGGCATTCTTATCTCGTGCTTTTATTAGTGGGC: 9680 a.u.
TGCGCAACAACTTGACCAGTGGGTGTATGTCTAGAA: 4320 a.u.
CTTCTGTAAATTTGGAATGTGGGTGGACGCGCCCCG: 5570 a.u.
TTGTTTCCTGGGAACTACGTGCAAATCAACAAGAAA: 6040 a.u.

Block 2 — technique: RNA Bind-n-Seq; form: RNA; sample: in vitro; concentration: 365 nM; reference: no-protein control; reading: higher = stronger binding; endpoint: RBNS enrichment (R)
Target: RNA binding protein fox-1 homolog 2, RRM domain, GST-SBP tag (RBFOX2, Homo sapiens, UniProt O43251-10, residues 100-194)
Notes: natural RNA segment, single round, ends assumed
All sequences stand within: GGGAGUUCUACAGUCCGACGAUC … UGGAAUUCUCGGGUGCCAA
Construct (chain): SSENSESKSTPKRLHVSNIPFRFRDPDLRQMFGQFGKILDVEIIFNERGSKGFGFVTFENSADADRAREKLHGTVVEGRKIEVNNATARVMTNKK
UGAUUCCUUUUUUCAAAAUCCAAAAAGAAAUGAUGUUGGAGAAGGGAAGUUGAACGAGCAUAGUCCAAAAAGCUCCUGGGGCGUCCAGGCCGCGCCCUUUCCCCGACGCC: 0.231
CCUGGGUCACCAGCCAUAGGGUACAGCCAGCCCCAGUGUGUGGUCUUGUUGGCCUGCUGGGUAGAACCUUUGCUUCAGGCUUCAUGCUCACAGCUUCCUGUCCUUUGCCC: 0.238
UUGGCUUUACCAUCUUAACUCAGCUGUGGGUUUUUUGUGGGUUCUUGUUUGUUUUUUGGCAUGAAUUGUCAUCUUUGGUGUUUUUUUAACCCCCAGCCCCUCAAAAAAAU: 0.822
CAGAAUGAACUGGCUUCGGACAGAACAGGACAGAUGGAUGUCGCACACGCCGAGACUCUGCCGUACCCCUCUGUGGUUCAUAUUACUACUUCUGUUCCAUGGUGUGCAGG: 0.492
GUCCAGUGAAAUCUCAUUAGGGUUUAAGAAUAUUUCAGGGAUCCUUAAUGUUUUGAUUUUUGUUUUCUGAAAUUGGAUUUUAUUUUAUUUUAUCUUAUAAUUUCAGUUCA: 0.629
GGGCUCAGUCUUUUGAGGUAAGUGGAAUUAGAGGGCCUUGCUUCUCUUCUUUCCAUUCUUCUUGCUACACCCCUUUUCCAGUUGCUGUGGACCAAUGCAUCUCUUUAAAG: 0.54
GAGUUAGGACCAACGACUAUUAACUUGCAUUCACAUUAUCCUCACAGAACCAAGAGUGGCAAUGCUUUGGAGAAUAGCAGUCCAGCCUAGUUAACAUGGGGAAAGAUGAC: 0.516
CUCUGUUCCCCACCCCUUCCCUUGCUGGCCAUUCUUGGCUUUUAGAAGGGAAAUGUUGAGCCAAAGUUAUGCCUGCGAAGACCCUAAGGUCUCAAAAAGAAGUCUUAAGA: 0.907
CCUGCCCUUGGAGGGCAUGUAGCAGUGUCUGUCCUGCCAGUCCCAAGGCCCUGUGGGAGGAGACUGGCCUGCAUCUCUCUAAGACUUAGUCUGACGCCACGCGCAUCUCU: 0.688
CCUUCCCUGGAGAGAAAGUGUGUGAUUUCUCUCCCACCUCCUUCCCCCCACCAGACCUUUGCUGGGCCUAAAGGUCUUGGCCAUGGGGACGCCCUCAGUCUAGGGAUCUG: 1.21
GUAUUAAACUCCAAAUGAGCCAUAGGAAGGCACUACAUGAAAUAAUGCACUGAGUAUGCAAUGCUAUCACUGUCUUUGACUGUGAUUUUAUGUUUAAAAAGUAUGUUCUA: 0.372
AGUGACUUUAUGUACUUAUAUUAACAGCUGGAAAUAGGUUGUUGGGUUUUGAGCAGGCUGUUAUAGUGAGGAAUGUUCAUUUUUAAAUGUUCCUAACAGAUUUUGCUUUU: 0.411

Block 3 — technique: protein binding microarray; form: double-stranded DNA, one strand shown; sample: in vitro; concentration: not given; reference: not given; reading: higher = stronger binding; endpoint: E-score
Target: Histone acetyltransferase KAT6A, winged helix 2, GST fusion (KAT6A, Homo sapiens, UniProt Q92794, residues 85-181)
Notes: 8-mer, flanks averaged, mean of 2 arrays, mostly near background
Residues (chain): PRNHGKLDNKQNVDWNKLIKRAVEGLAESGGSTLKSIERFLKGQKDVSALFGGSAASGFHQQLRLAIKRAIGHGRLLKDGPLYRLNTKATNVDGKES
TATAAAAA: 0.154
CGGTCAAG: 0.0288
GACATACC: 0.0208
CCAGCCGA: 0.117
ATTCAGTG: -0.00419
CCGCCCAC: 0.214
AGGGACCA: -0.0643
TAACATAA: -0.0167
ACGAAAAC: 0.106
ATGGCTGC: 0.0419
GTGTGCAA: -0.045
GCAAATTA: 0.0694
GGACCGCA: 0.226
TACTGGAA: 0.0324
CGCTGCAG: -0.023
GACCTTAC: 0.0145
CGCCGGGC: 0.239
ACGCGGTA: 0.0476
GACTATAA: -0.137
GCATACCA: -0.169
CTTCATAA: 0.071
TCTCGACA: 0.0867
AACTGGCC: 0.107
ACACTGTA: -0.218
CAGAATAC: -0.166

Block 4 — technique: RNA Bind-n-Seq; form: RNA; sample: in vitro; concentration: 1 µM; notes: whole 134-nt RNA, ends assumed; together with: 150 mM KCl; reference: input library; reading: higher = stronger binding; endpoint: log2 enrichment
Target: Ras GTPase-activating protein-binding protein 1, RRM domain (G3BP1, Homo sapiens, UniProt Q13283)
UniProt Q13283, sequence (whole entry, looked up): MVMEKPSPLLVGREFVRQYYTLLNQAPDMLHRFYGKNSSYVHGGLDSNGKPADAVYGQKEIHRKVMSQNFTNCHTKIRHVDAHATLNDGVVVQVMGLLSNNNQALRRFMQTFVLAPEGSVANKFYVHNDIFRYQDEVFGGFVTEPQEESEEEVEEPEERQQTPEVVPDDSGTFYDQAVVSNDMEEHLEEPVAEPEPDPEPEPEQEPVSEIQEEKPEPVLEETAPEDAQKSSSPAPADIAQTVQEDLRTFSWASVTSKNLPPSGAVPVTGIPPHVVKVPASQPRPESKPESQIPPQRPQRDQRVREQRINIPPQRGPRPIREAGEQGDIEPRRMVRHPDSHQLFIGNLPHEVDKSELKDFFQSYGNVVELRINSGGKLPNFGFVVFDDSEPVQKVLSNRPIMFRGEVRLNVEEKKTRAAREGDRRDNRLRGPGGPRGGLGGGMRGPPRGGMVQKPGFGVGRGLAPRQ
All sequences stand within: GGGAGUUCUACAGUCCGACGAUC … UGGAAUUCUCGGGUGUCAAGG
UCAAGUCCUGUGCUACACAUCGUAUGUACCGAAUCGGGCCCGGCCCGGGCCCGGGAAAGUAUUAUGUUACGCCGUUCGGAUCUGCACUUC: -0.541
AAGUCCUGUGCUACACAUCGUAUGUACCGAAUCGGAAAAGGGAAAAGGGAAAAGGGGAAAGUAUUAUGUUACGCCGUUCGGAUCUGCACU: 0.0402
ACCAUGCAGGUGGGCAUCUUUGGGAAGUGGGGCAAGGGGGGGAUAGGGAGGGGGGUAACACUUUAAAAACAGGUGGUCCCAGGUCGUUUC: -0.472
AGUCCUGUGCUACACAUCGUAUGUACCGAAUCGGUUUUUGGUUUUUUUGGUUUUUGGAAAGUAUUAUGUUACGCCGUUCGGAUCUGCACU: -0.146
UGGGAGGUGGAUUUUGUUUAUUUUUUUAGCUCAUUUCCAGGGGUGGGAAUUUUUUUUUAAUAUGUGUCAGGAAUAAAGUUGUUUUUGAAA: 1.92
AGUCCUGUGCUACACAUCGUAUGUACCGAAUCGGGUUUUUGGGUUUUUUUGGGUGGGAAAGUAUUAUGUUACGCCGUUCGGAUCUGCACU: 0.385
GUCCUGUGCUACACAUCGUAUGUACCGAAUCGGUUUUUGGGUUUUUGGGUUUUUGGGGAAAGUAUUAUGUUACGCCGUUCGGAUCUGCAC: -0.138
AGUCCUGUGCUACACAUCGUAUGUACCGAAUCGGGGUUUUUGGGGUUUGGGGUGGGGAAAGUAUUAUGUUACGCCGUUCGGAUCUGCACU: 1.18
UGGGAGGUGGACUUUGUUUAUUUUUUUAGCUCAUUUCCAGGGGUGGGAAUUUUUUUUUAAUAUGUGUCAUGAAUAAAGUUGUUUUUGAAA: 1.78
CCUGUGCUACACAUCGUAUGUACCGAAUCGGGGAAAAAAAGGGGAGGGGAAAAAAAGGGGAAAGUAUUAUGUUACGCCGUUCGGAUCUGC: 0.286

For quick reference, copied from above (block 3):
ATTCAGTG: -0.00419
CCGCCCAC: 0.214
AGGGACCA: -0.0643
TAACATAA: -0.0167
ACGAAAAC: 0.106
ATGGCTGC: 0.0419
GTGTGCAA: -0.045
